{"data": "Experimental data from different studies", "note": "Each numbered part is a random draw from the data of one study; scales do not carry over between parts.", "chain of UniProt Q13131 (whole entry, looked up)": "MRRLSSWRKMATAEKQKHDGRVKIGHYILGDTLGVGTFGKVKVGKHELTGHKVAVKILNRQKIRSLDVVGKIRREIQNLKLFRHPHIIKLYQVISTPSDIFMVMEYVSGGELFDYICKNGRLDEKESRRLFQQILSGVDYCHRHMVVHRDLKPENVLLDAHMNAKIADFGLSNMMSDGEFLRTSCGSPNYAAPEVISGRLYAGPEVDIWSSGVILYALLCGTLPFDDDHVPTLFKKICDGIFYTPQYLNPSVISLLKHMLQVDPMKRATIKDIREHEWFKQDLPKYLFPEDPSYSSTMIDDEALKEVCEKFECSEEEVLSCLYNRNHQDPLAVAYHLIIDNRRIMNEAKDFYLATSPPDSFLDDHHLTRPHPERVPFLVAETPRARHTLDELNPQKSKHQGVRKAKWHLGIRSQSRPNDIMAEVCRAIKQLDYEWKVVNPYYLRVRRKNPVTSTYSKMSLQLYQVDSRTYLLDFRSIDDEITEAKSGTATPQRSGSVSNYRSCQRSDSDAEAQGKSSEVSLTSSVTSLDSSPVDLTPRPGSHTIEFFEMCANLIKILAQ", "chain of UniProt O94806 (whole entry, looked up)": "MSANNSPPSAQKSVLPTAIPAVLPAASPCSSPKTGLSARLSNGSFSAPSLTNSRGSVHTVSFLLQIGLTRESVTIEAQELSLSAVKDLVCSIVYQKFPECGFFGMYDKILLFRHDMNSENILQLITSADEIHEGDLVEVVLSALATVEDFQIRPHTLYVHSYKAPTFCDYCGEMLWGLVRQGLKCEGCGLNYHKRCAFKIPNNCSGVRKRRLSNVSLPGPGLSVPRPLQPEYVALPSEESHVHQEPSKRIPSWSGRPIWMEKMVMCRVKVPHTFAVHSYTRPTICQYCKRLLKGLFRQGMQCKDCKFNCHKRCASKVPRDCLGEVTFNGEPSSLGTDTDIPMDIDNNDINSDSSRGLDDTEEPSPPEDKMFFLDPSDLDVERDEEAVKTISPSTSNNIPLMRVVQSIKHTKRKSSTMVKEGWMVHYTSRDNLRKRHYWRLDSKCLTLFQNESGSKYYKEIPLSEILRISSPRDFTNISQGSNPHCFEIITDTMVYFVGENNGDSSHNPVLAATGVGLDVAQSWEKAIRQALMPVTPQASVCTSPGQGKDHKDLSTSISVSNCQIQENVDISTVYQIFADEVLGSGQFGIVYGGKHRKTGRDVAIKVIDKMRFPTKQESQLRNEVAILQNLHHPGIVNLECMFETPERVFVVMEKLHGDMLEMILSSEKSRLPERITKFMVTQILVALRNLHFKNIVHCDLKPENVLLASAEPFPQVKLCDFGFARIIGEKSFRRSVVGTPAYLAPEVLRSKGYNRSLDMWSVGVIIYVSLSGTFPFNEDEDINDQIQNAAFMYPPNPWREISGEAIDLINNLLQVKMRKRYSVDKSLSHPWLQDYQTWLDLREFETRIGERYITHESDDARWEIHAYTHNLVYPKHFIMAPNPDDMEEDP", "chain of UniProt O94804 (whole entry, looked up)": "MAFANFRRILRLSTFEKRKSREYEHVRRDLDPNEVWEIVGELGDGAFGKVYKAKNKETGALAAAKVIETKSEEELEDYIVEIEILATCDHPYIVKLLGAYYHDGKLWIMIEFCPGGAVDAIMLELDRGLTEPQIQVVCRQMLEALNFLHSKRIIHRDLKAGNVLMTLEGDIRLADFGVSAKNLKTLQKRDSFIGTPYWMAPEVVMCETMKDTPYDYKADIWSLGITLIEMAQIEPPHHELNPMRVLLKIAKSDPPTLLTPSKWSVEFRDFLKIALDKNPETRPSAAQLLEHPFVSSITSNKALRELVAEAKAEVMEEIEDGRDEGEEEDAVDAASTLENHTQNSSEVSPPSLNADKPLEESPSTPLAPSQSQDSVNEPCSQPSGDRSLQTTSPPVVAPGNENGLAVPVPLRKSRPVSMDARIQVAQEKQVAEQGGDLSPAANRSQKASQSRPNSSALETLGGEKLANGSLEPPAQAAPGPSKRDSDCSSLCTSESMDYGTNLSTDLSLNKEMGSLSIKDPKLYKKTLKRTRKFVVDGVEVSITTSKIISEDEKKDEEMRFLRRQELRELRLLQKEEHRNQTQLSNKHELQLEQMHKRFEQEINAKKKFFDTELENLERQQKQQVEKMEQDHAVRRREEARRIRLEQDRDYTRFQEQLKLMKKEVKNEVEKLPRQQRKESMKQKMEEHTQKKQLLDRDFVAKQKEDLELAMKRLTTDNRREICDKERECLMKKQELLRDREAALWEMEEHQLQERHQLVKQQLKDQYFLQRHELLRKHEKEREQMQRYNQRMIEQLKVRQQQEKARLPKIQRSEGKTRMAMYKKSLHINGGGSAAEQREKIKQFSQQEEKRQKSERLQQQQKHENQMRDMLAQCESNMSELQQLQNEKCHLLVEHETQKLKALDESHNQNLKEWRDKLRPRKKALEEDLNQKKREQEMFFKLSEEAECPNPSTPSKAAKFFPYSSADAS", "chain of UniProt P00519 (whole entry, unmodified, looked up)": "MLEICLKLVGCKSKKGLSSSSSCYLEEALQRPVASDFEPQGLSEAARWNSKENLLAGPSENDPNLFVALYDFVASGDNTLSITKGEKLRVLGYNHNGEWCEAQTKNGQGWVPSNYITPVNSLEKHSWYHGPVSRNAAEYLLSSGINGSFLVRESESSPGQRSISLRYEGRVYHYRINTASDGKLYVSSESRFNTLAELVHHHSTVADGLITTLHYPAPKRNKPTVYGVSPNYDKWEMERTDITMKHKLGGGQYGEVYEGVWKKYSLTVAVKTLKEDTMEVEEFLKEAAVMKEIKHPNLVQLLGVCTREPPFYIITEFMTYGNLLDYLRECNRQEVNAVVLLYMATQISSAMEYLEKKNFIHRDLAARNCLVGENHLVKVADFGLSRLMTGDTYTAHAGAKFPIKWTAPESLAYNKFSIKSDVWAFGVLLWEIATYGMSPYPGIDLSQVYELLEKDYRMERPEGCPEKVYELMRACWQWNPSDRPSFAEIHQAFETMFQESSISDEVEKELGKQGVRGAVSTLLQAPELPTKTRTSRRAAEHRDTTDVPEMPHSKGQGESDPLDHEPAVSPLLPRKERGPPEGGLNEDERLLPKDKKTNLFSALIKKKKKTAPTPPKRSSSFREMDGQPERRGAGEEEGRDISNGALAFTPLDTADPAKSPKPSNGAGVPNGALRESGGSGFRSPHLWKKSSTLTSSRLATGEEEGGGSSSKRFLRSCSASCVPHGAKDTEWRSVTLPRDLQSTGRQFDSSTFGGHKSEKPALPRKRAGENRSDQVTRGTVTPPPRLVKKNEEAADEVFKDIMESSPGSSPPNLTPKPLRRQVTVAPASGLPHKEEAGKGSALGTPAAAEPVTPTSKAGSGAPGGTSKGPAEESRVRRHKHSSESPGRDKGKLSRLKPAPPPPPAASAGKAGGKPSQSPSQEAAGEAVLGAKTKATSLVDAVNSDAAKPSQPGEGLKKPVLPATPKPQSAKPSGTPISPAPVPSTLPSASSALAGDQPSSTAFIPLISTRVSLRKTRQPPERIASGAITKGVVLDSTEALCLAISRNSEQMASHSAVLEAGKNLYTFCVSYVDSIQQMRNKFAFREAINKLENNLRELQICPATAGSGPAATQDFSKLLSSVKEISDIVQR", "chain of UniProt Q9BWU1 (whole entry, looked up)": "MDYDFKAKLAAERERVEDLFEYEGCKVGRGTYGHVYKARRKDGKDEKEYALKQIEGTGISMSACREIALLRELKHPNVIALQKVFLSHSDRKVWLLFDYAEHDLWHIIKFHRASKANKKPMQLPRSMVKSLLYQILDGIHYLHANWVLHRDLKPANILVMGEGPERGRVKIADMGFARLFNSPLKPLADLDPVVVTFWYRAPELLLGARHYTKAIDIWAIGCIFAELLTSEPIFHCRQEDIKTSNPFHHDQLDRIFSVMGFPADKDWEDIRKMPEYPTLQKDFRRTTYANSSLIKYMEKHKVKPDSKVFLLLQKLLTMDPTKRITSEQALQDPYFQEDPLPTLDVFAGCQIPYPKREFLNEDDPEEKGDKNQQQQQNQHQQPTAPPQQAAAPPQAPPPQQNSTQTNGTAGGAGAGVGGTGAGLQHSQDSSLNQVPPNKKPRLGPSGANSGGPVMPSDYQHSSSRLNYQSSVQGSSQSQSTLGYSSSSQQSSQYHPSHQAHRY"}
{"data": "Set 1", "Structure (SMILES)": "CN1CCN(C(=O)c2ccc(NC(=O)Nc3ccc(N(C)c4ccnc(Nc5ccc(CS(C)(=O)=O)cc5)n4)cc3)cc2)CC1", "tested at": "1 µM"}
{"target": "ABL1 (Homo sapiens, UniProt P00519, F317L)", "assay": "competitive binding panel", "scale": "relative to: vehicle", "remaining binding [%]": 34}
{"target": "PRKAA1 (Homo sapiens, UniProt Q13131)", "assay": "competitive binding", "setting": "AMPK-alpha1", "remaining binding [%]": 82}
{"target": "PRKD3 (Homo sapiens, UniProt O94806)", "assay": "competitive binding panel", "scale": "relative to: vehicle", "remaining binding [%]": 100}
{"target": "CDC42BPG (Homo sapiens, UniProt Q6DT37)", "assay": "competitive binding panel, measured: DMPK2", "scale": "relative to: vehicle", "remaining binding [%]": 64}
{"target": "STK3 (Homo sapiens, UniProt Q13188)", "assay": "competitive binding panel, measured: MST2", "scale": "relative to: vehicle", "remaining binding [%]": 16}
{"target": "PIK3C3 (Homo sapiens, UniProt Q8NEB9)", "assay": "competitive binding panel, measured: VPS34", "scale": "relative to: vehicle", "remaining binding [%]": 74}
{"target": "EPHB6 (Homo sapiens, UniProt O15197)", "assay": "competitive binding panel", "scale": "relative to: vehicle", "remaining binding [%]": 4.3}
{"target": "CDK19 (Homo sapiens, UniProt Q9BWU1)", "assay": "competitive binding panel, measured: CDK11", "scale": "relative to: vehicle", "remaining binding [%]": 100}
{"target": "STK10 (Homo sapiens, UniProt O94804)", "assay": "competitive binding", "setting": "LOK", "remaining binding [%]": 0.4}
{"target": "MAPK8 (Homo sapiens, UniProt P45983)", "assay": "competitive binding", "setting": "JNK1", "remaining binding [%]": 5.5}
{"target": "HIPK3 (Homo sapiens, UniProt Q9H422)", "assay": "competitive binding panel", "scale": "relative to: vehicle", "remaining binding [%]": 71}
{"data": "Set 2", "cell line": "HaCaT", "tested at": "100 µM", "time": "36 h"}
{"SMILES": "NCCCNCCSP(=O)(O)O", "viability [%]": 97.2}
{"SMILES": "CCC1(c2ccccc2)C(=O)NCNC1=O", "viability [%]": 78.5}
{"SMILES": "CC(C)C(=O)Nc1ccc([N+](=O)[O-])c(C(F)(F)F)c1", "viability [%]": 50.1}
{"SMILES": "CC1CCc2cc(F)cc3c(=O)c(C(=O)O)cn1c23 (centres unmarked)", "viability [%]": 89.3}
{"SMILES": "CC(=O)O[C@]1(C(C)=O)CC[C@H]2[C@@H]3CCC4=CC(=O)CCC4=C3[C@@H](c3ccc(N(C)C)cc3)C[C@@]21C", "viability [%]": 67.4}
{"SMILES": "OCc1ccc(O[C@@H]2O[C@H](CO)[C@@H](O)[C@H](O)[C@H]2O)cc1", "viability [%]": 86.7}
{"SMILES": "CN1C(C)(C)CCCC1(C)C", "viability [%]": 90.6}
{"SMILES": "CCOC(=O)Nc1ccc(NCc2ccc(F)cc2)nc1N", "viability [%]": 76.8}
{"SMILES": "CC1(C)O[C@@H]2C[C@H]3[C@@H]4CCC5=CC(=O)C=C[C@]5(C)[C@H]4[C@@H](O)C[C@]3(C)[C@]2(C(=O)CO)O1", "viability [%]": 96.7}
{"SMILES": "CCCCC(=O)N(Cc1ccc(-c2ccccc2-c2nnn[nH]2)cc1)[C@H](C(=O)O)C(C)C", "viability [%]": 94.6}
{"data": "Set 3", "target": "Ephrin type-B receptor 2 (EPHB2, Homo sapiens, UniProt P29323)", "effect on": "enzyme activity", "action": "inhibitor", "tested at": "0.5 µM", "relative to": "control", "chain of UniProt P29323 (whole entry, looked up)": "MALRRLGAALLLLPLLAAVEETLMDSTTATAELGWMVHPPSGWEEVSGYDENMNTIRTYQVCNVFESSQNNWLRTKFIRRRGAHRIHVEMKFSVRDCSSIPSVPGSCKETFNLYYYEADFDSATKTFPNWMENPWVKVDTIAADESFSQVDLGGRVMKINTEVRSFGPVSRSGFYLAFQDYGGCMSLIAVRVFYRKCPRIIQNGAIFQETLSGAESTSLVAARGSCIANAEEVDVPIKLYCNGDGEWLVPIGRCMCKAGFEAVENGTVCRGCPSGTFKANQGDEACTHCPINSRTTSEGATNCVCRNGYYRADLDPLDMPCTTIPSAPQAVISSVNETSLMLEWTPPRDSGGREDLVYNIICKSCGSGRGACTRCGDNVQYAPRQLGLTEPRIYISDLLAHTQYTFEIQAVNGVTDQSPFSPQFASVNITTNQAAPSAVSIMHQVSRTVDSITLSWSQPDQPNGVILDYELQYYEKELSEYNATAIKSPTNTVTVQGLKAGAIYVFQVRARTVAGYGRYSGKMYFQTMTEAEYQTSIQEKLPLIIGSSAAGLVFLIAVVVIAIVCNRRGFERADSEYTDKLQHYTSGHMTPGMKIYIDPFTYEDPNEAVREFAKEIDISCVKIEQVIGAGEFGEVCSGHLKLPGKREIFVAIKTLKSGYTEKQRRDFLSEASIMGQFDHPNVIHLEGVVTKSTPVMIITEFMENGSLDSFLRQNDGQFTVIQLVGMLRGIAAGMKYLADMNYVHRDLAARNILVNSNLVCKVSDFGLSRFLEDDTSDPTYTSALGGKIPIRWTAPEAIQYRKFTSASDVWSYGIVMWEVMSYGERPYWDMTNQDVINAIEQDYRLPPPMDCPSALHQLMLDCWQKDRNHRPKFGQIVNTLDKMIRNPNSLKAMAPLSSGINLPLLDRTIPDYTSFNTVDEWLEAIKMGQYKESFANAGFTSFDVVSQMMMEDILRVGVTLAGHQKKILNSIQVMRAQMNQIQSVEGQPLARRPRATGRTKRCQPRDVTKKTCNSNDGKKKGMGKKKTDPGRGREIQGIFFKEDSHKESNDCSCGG"}
{"SMILES": "C[C@@H](N)[C@H]1CC[C@H](C(=O)Nc2ccncc2)CC1", "remaining activity": "78.9%"}
{"SMILES": "NC(=O)c1cccc(-c2cc(Nc3ccc(OC(F)(F)F)cc3)ncn2)c1", "remaining activity": "102%"}
{"SMILES": "CCN(CC)CCCCN1c2ccccc2Oc2ccc(Cl)cc21", "remaining activity": "107%"}
{"SMILES": "N#C/C(=C(/N)SC1C=CC=CC1)c1cccc(C(O)c2ccncc2)c1 (centres unmarked)", "remaining activity": "103%"}
{"SMILES": "COc1cc2c(Nc3ccc(Br)cc3F)ncnc2cc1OCC1CCN(C)CC1", "remaining activity": "24.4%"}
{"SMILES": "CCCCc1c(-c2ccc(O)cc2)[nH]c2nccnc12", "remaining activity": "92.3%"}
{"SMILES": "c1cc(-c2cnn3cc(-c4ccc(OCCN5CCCCC5)cc4)cnc23)ccn1", "remaining activity": "33.6%"}
{"SMILES": "COc1cc2c(N3CCN(C(=O)Nc4ccc(OC(C)C)cc4)CC3)ncnc2cc1OCCCN1CCCCC1", "remaining activity": "97.6%"}
{"SMILES": "NC(=O)c1ccc(-c2nc(-c3ccc4c(c3)OCCO4)c(-c3ccccn3)[nH]2)cc1", "remaining activity": "97.6%"}
{"SMILES": "CNc1cc2c(Nc3cccc(Br)c3)ncnc2cn1", "remaining activity": "91.2%"}
{"SMILES": "O=C(O)/C=C/c1cc(Br)c(Br)c(Br)c1Br", "remaining activity": "103%"}
{"SMILES": "CC(C)n1cnc2c(Nc3cccc(Cl)c3)nc(NCCO)nc21", "remaining activity": "89.8%"}
{"SMILES": "O=C1NC(=O)/C(=C/c2ccc3c(c2)OC(F)(F)O3)S1", "remaining activity": "95.8%"}
{"SMILES": "Nc1nc(Nc2ccc(S(N)(=O)=O)cc2)nn1C(=S)Nc1c(F)cccc1F", "remaining activity": "81.4%"}
{"SMILES": "O=Nc1c(-c2c(O)[nH]c3ccccc23)[nH]c2ccccc12", "remaining activity": "83.3%"}
{"SMILES": "FC(F)(F)c1ccc(/C=C/c2nc(COc3ccc(CCCCn4ccnn4)cc3)co2)cc1", "remaining activity": "98.3%"}
{"SMILES": "O=C(c1ccccc1)c1ccc(N2CCOCC2)cc1O", "remaining activity": "94.9%"}
{"SMILES": "CC(C)(C)c1nc2c3cc[nH]c(=O)c3c3cc(F)ccc3c2[nH]1", "remaining activity": "92.8%"}
{"SMILES": "CC(C)N(CCC(=O)c1ccc2ccccc2c1)Cc1ccccc1", "remaining activity": "102%"}
{"SMILES": "Clc1ccc(Nc2nnc(Cc3ccncc3)c3ccccc23)cc1", "remaining activity": "107%"}
{"SMILES": "N#CC(c1ccnc(NCCc2cccnc2)n1)c1nc2ccccc2s1 (centres unmarked)", "remaining activity": "112%"}
{"data": "Set 4", "cell line": "sample D normal colon organoid", "method": "CellTiter-Glo", "tested at": "1 µM", "notes": "mean of replicates", "relative to": "DMSO"}
{"Compound": "Cc1cn(-c2cc(NC(=O)c3ccc4c(c3)CN(c3cncnc3)C[C@@H]4C)cc(C(F)(F)F)c2)cn1", "viability [%]": 98.1}
{"Compound": "CN1CCN(C(=O)C(C)(C)c2ccc(C(=O)Nc3cn4cc(-c5cc(C(C)(C)C)cc(C(C)(C)C)c5)ccc4n3)cc2)CC1", "viability [%]": 107}
{"Compound": "CCC(=O)N[C@H]1CC[C@@H](C(=O)N(C)c2ccc(-c3nc4ccccc4o3)cc2)C1", "viability [%]": 58.9}
{"Compound": "Cc1cc(-n2nc(Cc3cc(F)cc(C(F)(F)F)c3)nc2C)ccc1C(N)=O", "viability [%]": 89}
{"Compound": "Cn1cncc1[C@](O)(COc1ccc(C#N)cc1-c1ccc(OC(F)(F)F)cc1)c1ccc(C#N)cc1", "viability [%]": 52.8}
{"Compound": "C[C@H](c1cccc(C#N)c1)n1cc(Cl)cc(C(N)=O)c1=N", "viability [%]": 123}
{"Compound": "Cc1noc([C@H]2C[C@@H](c3ccc(C(F)(F)F)cc3)CN(C(=O)N3CCS(=O)(=O)C3)C2)n1", "viability [%]": 91.1}
{"Compound": "Cc1nc(C2CCN(C(=O)c3ccc(OC(F)(F)F)cc3N)CC2)c2ncc(N3CCN(C)CC3)cc2n1", "viability [%]": 85.6}
{"Compound": "CC(C)(O)c1cncc(-c2nc3ccc(F)cc3n2C2CC2)c1", "viability [%]": 102}
{"Compound": "O=C1CCc2cc(Nc3cc(OC4CCOCC4)c([N+](=O)[O-])cc3Cl)ccc2N1", "viability [%]": 96}
{"Compound": "C[C@@H](NC(=O)Nc1cc2[nH]ncc2c(CO)n1)c1ccccc1", "viability [%]": 106}
{"Compound": "CN1CCN(Cc2ccc(Nc3ncc(Cl)c(Nc4ccccc4S(=O)(=O)N(C)C)n3)cc2)CC1", "viability [%]": 2.5}
{"Compound": "CN(c1ccnc(CNc2nc(Nc3ccc4c(c3)CC(=O)N4)ncc2C(F)(F)F)n1)S(C)(=O)=O", "viability [%]": 85.5}
{"Compound": "COc1cc(-c2cn(C3CCc4c(F)cccc4N(CC(F)(F)F)C3=O)nn2)ccc1-n1cnc(C)c1 (centres unmarked)", "viability [%]": 119}
{"note": "Some of these lines once more (set 1):"}
{"target": "STK3 (Homo sapiens, UniProt Q13188)", "assay": "competitive binding panel, measured: MST2", "scale": "relative to: vehicle", "remaining binding [%]": 16}
{"target": "ABL1 (Homo sapiens, UniProt P00519, F317L)", "assay": "competitive binding panel", "scale": "relative to: vehicle", "remaining binding [%]": 34}
{"target": "EPHB6 (Homo sapiens, UniProt O15197)", "assay": "competitive binding panel", "scale": "relative to: vehicle", "remaining binding [%]": 4.3}
{"target": "PRKAA1 (Homo sapiens, UniProt Q13131)", "assay": "competitive binding", "setting": "AMPK-alpha1", "remaining binding [%]": 82}
